Experimental data gathered from unrelated publications.
Compare with care: the assays were run in different laboratories. “And” joins repeats or separate records; there may be more than shown. ± marks the error that the study gave.

Structure (SMILES) | assay | system | conditions | endpoint | result
C/C(N)=N/C(=N\S(=O)(=O)c1ccc(C(F)(F)F)cc1)N1C[C@H](c2ccccc2)C(c2ccc(Cl)cc2)=N1 |  | C57BL/6 mouse, muscle | intravenous, 10 mg/kg | Tmax | 120 min
C=CC(=O)N1CCCC(n2c(=O)c3ncccc3n(Cc3ccc(Oc4ccccc4)cc3)c2=O)C1 (stereo not shown) |  | male BALB/c mouse, plasma | oral, 200 mg/kg, 6 h | concentration | 4740 ng/mL
CN1CCCNC(=O)c2cccc(c2)C(=O)NCCCN(C)CCCNc2cccc3c2C(=O)c2cccc(c2C3=O)NCCC1 |  | mouse xenograft model | dose not given, day 4, group mean | body weight | 26.4 g
NC(=O)c1cccc(NC(=O)c2cc(-c3ccc(Br)cc3)n(-c3ccccc3)n2)c1 |  | rat liver microsomes | 4 h | depletion | < 30%
CC(C)C[C@H](NC(=O)[C@H](Cc1ccc(O)cc1)NC(=O)[C@H](CC(N)=O)NC(=O)[C@H](CO)NC(=O)[C@H](CCCNC(=N)N)NC(=O)[C@H](Cc1ccc(O)cc1)NC(=O)CNC(=O)[C@H](CCCNC(=N)N)NC(=O)[C@H](Cc1c[nH]cn1)NC(=O)[C@H](CO)NC(=O)[C@H](Cc1c[nH]cn1)NC(=O)[C@H](Cc1c[nH]cn1)NC(=O)[C@H](CCCCN)NC(=O)[C@H](CCC(=O)O)NC(=O)[C@H](Cc1c[nH]cn1)NC(=O)[C@H](Cc1ccccc1)NC(=O)[C@H](CCCCN)NC(=O)[C@H](CCCNC(=N)N)NC(=O)[C@H](CCCCN)NC(=O)[C@H](Cc1ccc(O)cc1)NC(=O)CNC(=O)[C@H](Cc1c[nH]cn1)NC(=O)[C@H](Cc1c[nH]cn1)NC(=O)[C@H](CCCNC(=N)N)NC(=O)[C@H](CCCCN)NC(=O)[C@H](C)NC(=O)[C@H](Cc1c[nH]cn1)NC(=O)[C@H](CO)NC(=O)[C@@H](N)CC(=O)O)C(=O)N[C@@H](Cc1ccc(O)cc1)C(=O)N[C@@H](CC(=O)O)C(=O)N[C@@H](CC(N)=O)C(=O)O |  | human whole saliva | 40 µg/mL, median | half-life | 1.2 min
C=C(NC(=O)c1csc(-c2nc3c(cc2O)-c2nc(cs2)C(=O)NC(C(C)O)C(=O)NC(=C(C)OC)c2nc(cs2)C(=O)NC2c4nc(cs4)C(=O)NC(COC(=O)c4c5c6c(cccc6n4O)COC(=O)C(OC4CC(C)(O)C(N(C)C)C(C)O4)C2OC5)c2nc-3cs2)n1)C(N)=O (stereo not shown) |  | Sprague-Dawley rat, both sexes, plasma | intravenous infusion, 6 mg/kg single dose | MRT(0-last) | 79.2 min
C=CC(=O)Nc1cc(Nc2nccc(-c3cn(C)c4ccccc34)n2)c(OC)cc1N(C)CCNC |  | human, plasma | 10 d, room temperature, high QC level | remaining compound | 37.9%
CNc1cc(N)c(C(N)=O)cn1 |  | Han Wistar rats, male, plasma | oral, 30 mg/kg, 1.50 h | concentration at time | 22.4 µM
Cc1nc(N)nc2c1C(=O)N[C@@H](c1ccc(F)cc1-c1cccc(O[11CH3])n1)C2 | ex vivo biodistribution | mice, U87 subcutaneous xenograft, heart | 60 min post-injection, baseline, vehicle pre-treatment | tracer uptake | 0.9 ± 0.1 %ID
Cc1c(Cc2cccc(OC(C)(C)C(=O)O)c2)c2ccc(C(=O)N[C@@H](C)c3cccc(C(C)(C)C)c3)cc2n1CC1CC1 |  | human liver microsomes |  | half-life | 26.4 min
CC(C(=O)O)n1nc(Cn2cc3cc(OCC[18F])c(Cl)cc3n2)c2ccccc2c1=O (racemic) |  | rat, spleen | 30 min | tracer uptake | 0.18 %ID/g
Cc1nn(-c2nc3c(F)cc(F)cc3s2)c(O)c1C(c1ccc(C(F)(F)F)cc1)c1c(C)nn(-c2nc3c(F)cc(F)cc3s2)c1O |  | ICR mouse | intravenous, 5 mg/kg, 4.00 h | plasma concentration | 5820 ng/mL and 1190 ng/mL and 5230 ng/mL
N#C[C@@H]1CC(F)(F)CN1C(=O)CNC(=O)c1ccnc2c(NC(=O)[C@H](CCCCNC(=O)CCOCCOCCOCCOCCOCCOCCNC(=O)CN3CCN(CC(=O)[O-])CCN(CC(=O)[O-])CCN(CC(=O)[O-])CC3)NC(=O)CCCc3ccc(I)cc3)cccc12.[177Lu+3] |  | mouse, U-87 MG tumour xenograft, brain | 24 h | tissue uptake | 0.37 ± 0.37 %ID/g
CCCCN1C(=O)c2cccc3c(NCCCCCCCCCCN4CCOCC4)ccc(c23)C1=O |  | acetonitrile |  | fluorescence lifetime | 9.5 ns
CN1CCC[C@]1(C)/C=C/S(=O)(=O)NC(=O)Nc1c2c(cc3c1C(O)CC3)CCC2 (stereo partly shown) |  | human, plasma | oral, 100 mg twice daily of parent drug, day 14, metabolite of dosed drug | Cmax at first steady-state dose | 23600 ng/mL
O=C(Nc1cnccc1-c1ccc([18F])cc1)c1ccnc(NC(=O)C2CC2)c1 |  | FVB/NJ mice (both sexes), bladder | intravenous, dose not given, 120 min | SUV | 1.64

Repeated from above:
Structure (SMILES) | assay | system | conditions | endpoint | result
Cc1nn(-c2nc3c(F)cc(F)cc3s2)c(O)c1C(c1ccc(C(F)(F)F)cc1)c1c(C)nn(-c2nc3c(F)cc(F)cc3s2)c1O |  | ICR mouse | intravenous, 5 mg/kg, 4.00 h | plasma concentration | 5820 ng/mL and 1190 ng/mL and 5230 ng/mL
N#C[C@@H]1CC(F)(F)CN1C(=O)CNC(=O)c1ccnc2c(NC(=O)[C@H](CCCCNC(=O)CCOCCOCCOCCOCCOCCOCCNC(=O)CN3CCN(CC(=O)[O-])CCN(CC(=O)[O-])CCN(CC(=O)[O-])CC3)NC(=O)CCCc3ccc(I)cc3)cccc12.[177Lu+3] |  | mouse, U-87 MG tumour xenograft, brain | 24 h | tissue uptake | 0.37 ± 0.37 %ID/g
